# Measurements of several laboratories.
# Every numbered part comes from another study and shows a few of its results, in no order. ± gives the spread as reported.
# UniProt P26368, sequence (whole entry, looked up): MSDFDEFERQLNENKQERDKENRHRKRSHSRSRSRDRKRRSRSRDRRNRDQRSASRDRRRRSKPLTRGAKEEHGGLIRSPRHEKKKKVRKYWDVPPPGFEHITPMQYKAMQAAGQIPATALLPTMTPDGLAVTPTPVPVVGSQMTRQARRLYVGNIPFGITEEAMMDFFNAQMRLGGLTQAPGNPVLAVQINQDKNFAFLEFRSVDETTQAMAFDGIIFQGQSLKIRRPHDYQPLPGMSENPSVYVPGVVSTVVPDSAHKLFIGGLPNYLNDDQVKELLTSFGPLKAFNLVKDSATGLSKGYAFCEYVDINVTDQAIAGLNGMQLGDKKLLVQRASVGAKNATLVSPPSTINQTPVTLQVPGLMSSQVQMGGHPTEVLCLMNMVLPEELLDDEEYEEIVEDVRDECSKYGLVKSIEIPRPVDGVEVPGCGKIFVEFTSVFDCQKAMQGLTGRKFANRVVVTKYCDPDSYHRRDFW

# Block 1
# Cell line: CYB5R4 knockout human cells
# Effect on: PP4 interaction
# Method: 3xFLAG-PP4C IP-MS
# Concentration: concentration not given
# Baseline: CYB5R4 KO over parental
# B1: human catalase; sequence looked up; chain ADSRDPASDQMQHWKEQRAAQKADVLTTGAGNPVGDKLNVITVGPRGPLLVQDVVFTDEMAHFDRERIPERVVHAKGAGAFGYFEVTHDITKYSKAKVFEHIGKKTPIAVRFSTVAGESGSADTVRDPRGFAVKFYTEDGNWDLVGNNTPIFFIRDPILFPSFIHSQKRNPQTHLKDPDMVWDFWSLRPESLHQVSFLFSDRGIPDGHRHMNGYGSHTFKLVNANGEAVYCKFHYKTDQGIKNLSVEDAARLSQEDPDYGIRDLFNAIATGKYPSWTFYIQVMTFNQAETFPFNPFDLTKVWPHKDYPLIPVGKLVLNRNPVNYFAEVEQIAFDPSNMPPGIEASPDKMLQGRLFAYPDTHRHRLGPNYLHIPVNCPYRARVANYQRDGPMCMQDNQGGAPNYYPNSFGAPEQQPSALEHSIQYSGEVRRFNTANDDNVTQVRAFYVNVLNEEQRKRLCENIAGHLKDAQIFIQKKAVKNFTEVHPDYGSHIQALLDKYNAEKPKNAIHTFVQSGSHLAAREKANL
# B2: human MCM5; sequence looked up; chain SGFDDPGIFYSDSFGGDAQADEGQARKSQLQRRFKEFLRQYRVGTDRTGFTFKYRDELKRHYNLGEYWIEVEMEDLASFDEDLADYLYKQPAEHLQLLEEAAKEVADEVTRPRPSGEEVLQDIQVMLKSDASPSSIRSLKSDMMSHLVKIPGIIIAASAVRAKATRISIQCRSCRNTLTNIAMRPGLEGYALPRKCNTDQAGRPKCPLDPYFIMPDKCKCVDFQTLKLQELPDAVPHGEMPRHMQLYCDRYLCDKVVPGNRVTIMGIYSIKKFGLTTSRGRDRVGVGIRSSYIRVLGIQVDTDGSGRSFAGAVSPQEEEEFRRLAALPNVYEVISKSIAPSIFGGTDMKKAIACLLFGGSRKRLPDGLTRRGDINLLMLGDPGTAKSQLLKFVEKCSPIGVYTSGKGSSAAGLTASVMRDPSSRNFIMEGGAMVLADGGVVCIDEFDKMREDDRVAIHEAMEQQTISIAKAGITTTLNSRCSVLAAANSVFGRWDETKGEDNIDFMPTILSRFDMIFIVKDEHNEERDVMLAKHVITLHVSALTQTQAVEGEIDLAKLKKFIAYCRVKCGPRLSAEAAEKLKNRYIIMRSGARQHERDSDRRSSIPITVRQLEAIVRIAEALSKMKLQPFATEADVEEALRLFQVSTLDAALSGTLSGVEGFTSQEDQEMLSRIEKQLKRRFAIGSQVSEHSIIKDFTKQKYPEHAIHKVLQLMLRRGEIQHRMQRKVLYRLK
# B3: human PABP3; sequence looked up; chain MNPSTPSYPTASLYVGDLHPDVTEAMLYEKFSPAGPILSIRICRDLITSGSSNYAYVNFQHTKDAEHALDTMNFDVIKGKPVRIMWSQRDPSLRKSGVGNIFVKNLDKSINNKALYDTVSAFGNILSCNVVCDENGSKGYGFVHFETHEAAERAIKKMNGMLLNGRKVFVGQFKSRKEREAELGARAKEFPNVYIKNFGEDMDDERLKDLFGKFGPALSVKVMTDESGKSKGFGFVSFERHEDAQKAVDEMNGKELNGKQIYVGRAQKKVERQTELKRTFEQMKQDRITRYQVVNLYVKNLDDGIDDERLRKAFSPFGTITSAKVMMEGGRSKGFGFVCFSSPEEATKAVTEMNGRIVATKPLYVALAQRKEERQAYLTNEYMQRMASVRAVPNQRAPPSGYFMTAVPQTQNHAAYYPPSQIARLRPSPRWTAQGARPHPFQNKPSAIRPGAPRVPFSTMRPASSQVPRVMSTQRVANTSTQTVGPRPAAAAAAAATPAVRTVPRYKYAAGVRNPQQHRNAQPQVTMQQLAVHVQGQETLTASRLASAPPQKQKQMLGERLFPLIQAMHPTLAGKITGMLLEIDNSELLYMLESPESLRSKVDEAVAVLQAHQAKEATQKAVNSATGVPTV
Sequence,log2 fold change
B1 (human catalase),-0.57
B2 (human MCM5),-2.89
B3 (human PABP3),-0.31

# Further values, each from its own experiment
# TOA1/TOA2 1-286; 1-122: TOA1/TOA2 1-286; 1-122 (Saccharomyces cerevisiae)
# T1: TOA1/TOA2 1-286; 1-122 (Saccharomyces cerevisiae); chain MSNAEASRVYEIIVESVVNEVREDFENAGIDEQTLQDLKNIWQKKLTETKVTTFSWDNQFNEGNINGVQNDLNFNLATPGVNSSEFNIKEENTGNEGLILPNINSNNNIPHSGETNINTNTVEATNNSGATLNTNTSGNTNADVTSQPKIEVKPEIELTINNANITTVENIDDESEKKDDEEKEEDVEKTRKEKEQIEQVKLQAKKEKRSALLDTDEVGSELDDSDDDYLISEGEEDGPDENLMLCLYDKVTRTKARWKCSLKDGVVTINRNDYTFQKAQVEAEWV; chain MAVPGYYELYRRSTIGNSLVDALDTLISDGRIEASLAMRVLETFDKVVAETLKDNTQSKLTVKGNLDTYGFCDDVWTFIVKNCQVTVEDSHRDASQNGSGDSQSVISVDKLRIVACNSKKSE
Substance,tested on,assay,test system,setting,measurement,value
human ME2 A65V mutant,,"enzyme activity, NADH absorbance",,"with fumarate 3 mM, with: L-malate varied",Hill coefficient,1.17 ± 0.15
GGTGAGGGTACTTATGCGGTTGTTTACTTGGGTTGTCAAGTCAATCGGTCC (dsDNA; 5'-amino-C6 primer),"T1, TOA1/TOA2 1-286; 1-122 (Saccharomyces cerevisiae)",array,"double-stranded DNA, one strand shown",TFIIA alone,Kd,140 ± 62.5 nM
UUUUUACCU (ssRNA),"U2AF2 148-342 (Homo sapiens, UniProt P26368)",sequencing of bound RNA,RNA,motif only,Kd,3920 nM
human ME2 G124S mutant,,"enzyme activity, NADH absorbance",,"with fumarate 3 mM, with: L-malate varied",Hill coefficient,1 ± 0.01
CTCAGGAATTCCTGTAAAGTAATGTGGAGCTCAGTTCAAGTCAATCGGTCC (dsDNA; 5'-amino-C6 primer),"T1, TOA1/TOA2 1-286; 1-122 (Saccharomyces cerevisiae)",array,"double-stranded DNA, one strand shown",TFIIA alone,Kd,25.2 ± 6.28 nM

# For quick reference, copied from above (further values, each from its own experiment):
Substance,tested on,assay,test system,setting,measurement,value
human ME2 G124S mutant,,"enzyme activity, NADH absorbance",,"with fumarate 3 mM, with: L-malate varied",Hill coefficient,1 ± 0.01
